Published values pooled from the literature.
Numbered parts are unrelated; each lists some results of a single study. Changes are numbered by the printed parent chain.

Block 1
Target: Prothrombin, mature alpha-thrombin (F2, Homo sapiens, UniProt P00734)
Method: aptamer microarray, sandwich
Molecule type: DNA with 2'F-ANA
Sample: in vitro
Concentration: 200 nM
Setting: whole 15-mer aptamer, many near background
Added: Cy3 exosite-II aptamer, 400 nM
Reading: higher = stronger binding
Strand: GGTTGGTGTGGTTGG
Modification	mean fluorescence intensity [a.u.]
2'F-ANA at 1 3 4 5 6 9 10 11 12 15	73.4
2'F-ANA at 1 2 4 7 9 13 14 15	45.9
2'F-ANA at 7 8 11 15	515
2'F-ANA at 1 2 3 4 5 7 11 12	81.6
2'F-ANA at 1 2 6 8 11 12 14 15	65.2
2'F-ANA at 3 5 8 10 12 13 14 15	65.3
2'F-ANA at 4 5 9 11 15	53.4
2'F-ANA at 2 3 5 7 10 11 12 15	64
2'F-ANA at 1 4 5 6 8 11 13 14 15	108
2'F-ANA at 3 4 6 12 14	336
2'F-ANA at 1 2 5 8 11 12 13 14 15	47.3
2'F-ANA at 2 4 5 6 7 10 11 15	48.4
2'F-ANA at 1 3 4 7 8 10 13 14	82.8
2'F-ANA at 1 6 8 9 10 14 15	49.5
2'F-ANA at 4 5 6 7 9 11 12	123
2'F-ANA at 1 2 3 6 7 8 9 10 14 15	55.3

Block 2
Target: Centromere-binding protein 1, full length, N-terminal tag (CBF1, Saccharomyces cerevisiae, UniProt P17106, residues 1-351)
Sequence of UniProt P17106 (whole entry, looked up): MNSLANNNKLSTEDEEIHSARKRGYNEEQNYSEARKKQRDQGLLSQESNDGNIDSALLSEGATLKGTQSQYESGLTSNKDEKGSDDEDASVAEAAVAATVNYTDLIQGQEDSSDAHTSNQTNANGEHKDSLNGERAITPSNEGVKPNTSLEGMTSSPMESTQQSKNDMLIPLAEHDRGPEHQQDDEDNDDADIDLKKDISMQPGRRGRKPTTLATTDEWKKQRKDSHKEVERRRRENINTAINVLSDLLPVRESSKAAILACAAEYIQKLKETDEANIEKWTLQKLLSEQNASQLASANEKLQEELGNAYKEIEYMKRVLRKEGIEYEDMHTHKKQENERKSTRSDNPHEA
Method: protein-binding microarray
Molecule type: double-stranded DNA, one strand shown
Sample: in vitro
Concentration: 0.8 µM
Setting: whole 60-bp probe, no competitor
Reading: higher = stronger binding
Strand	fluorescence intensity [a.u.]
GAATTTTTGTGATTGAACGTGTGATCTTTTCCTTAGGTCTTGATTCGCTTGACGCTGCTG	578
CTAATCCATAAAAGAAACGTGATGGTCGTTCCCTTCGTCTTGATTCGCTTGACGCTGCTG	999
CTACAGAAAATAGTCGACGTCAGTCACCTCCAGTTCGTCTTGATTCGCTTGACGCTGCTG	551
GAAAAAAGTCCGGGTGACATTACATACATACGCTAGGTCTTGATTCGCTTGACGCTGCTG	555
CCTAACTACTATAAGTACATCAGATAGCTTCGTACAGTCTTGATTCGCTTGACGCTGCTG	479
GAATAAATGAAAAGAAACGTGCAACGCATTTATTAGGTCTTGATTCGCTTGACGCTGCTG	629
GAACGGCGGCAAAAACGTGACATGCACGTGATGTAGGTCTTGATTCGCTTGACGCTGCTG	22300
CTATCTGCCACTGGTGGTGCTGATAGCGTCGACTTCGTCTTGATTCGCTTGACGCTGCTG	476
GAAATTTCTCATCATCACCTACATATTCTCCTATAGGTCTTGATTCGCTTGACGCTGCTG	586
CTATTGTGCGTTTTTCACGTTGACGTGCTTCTTTTCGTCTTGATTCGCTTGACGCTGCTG	599
CTACTTTCTCTGCTCCATGTGAATTAAATAAGTTTCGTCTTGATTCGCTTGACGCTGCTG	723
CTATTCTACGTTAAAATCGTGATTACTTTACGATTCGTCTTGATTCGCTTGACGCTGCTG	622
TGTACGAAGCTATCGAACGTGTGTATAGTAGTTAGGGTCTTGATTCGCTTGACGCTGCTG	512
CCTAACTACTATAATCGTGTCACATAGCTTCGTACAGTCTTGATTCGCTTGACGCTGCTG	559
GAAACATGTCTATGTTTCGTGCTTTTGCCGATTTAGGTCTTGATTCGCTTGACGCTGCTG	455
GAATATCCCTATCAAATCGTGATAATATGTGGTTAGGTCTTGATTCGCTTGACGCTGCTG	529
CTATCTATATTCACTCACGTTATGCGCCTGAATTTCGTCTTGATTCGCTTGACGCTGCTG	741
GAACCTTTACGGGCGTGCATGATGTATCAGGAATAGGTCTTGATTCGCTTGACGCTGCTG	577
CTACCCGGCCTGCGCTGCGTGCACCGACTGCGTTTCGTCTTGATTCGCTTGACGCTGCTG	454
CTATGTGAAAATGAACGTGACTTGAAACTTTGCTTCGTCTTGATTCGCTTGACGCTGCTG	2160
CTATTCGTGTAAAGTGATGTTGGGATTGTCCGATTCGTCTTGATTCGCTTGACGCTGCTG	545
CTATGCAATCGTCATCATATGAGAAATGGATATTTCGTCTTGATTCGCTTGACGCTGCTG	548
GAACTTCTCTGTTGTGGTGATGTCGTGATACCATAGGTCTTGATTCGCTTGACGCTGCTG	1230
TGTACGAAGCTATAGCACGTAGTTATAGTAGTTAGGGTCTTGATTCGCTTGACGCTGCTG	697
GAATACTTAATATTCTTCGTGATAATACTGTACTAGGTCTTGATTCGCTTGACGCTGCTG	504

Block 3
Target: RNA binding protein fox-1 homolog 2, RRM domain, GST-SBP tag (RBFOX2, Homo sapiens, UniProt O43251-10, residues 100-194)
Method: RNA Bind-n-Seq
Molecule type: RNA
Sample: in vitro
Concentration: 365 nM
Setting: natural RNA segment, single round, ends assumed
Reference: no-protein control
Reading: higher = stronger binding
Construct (chain): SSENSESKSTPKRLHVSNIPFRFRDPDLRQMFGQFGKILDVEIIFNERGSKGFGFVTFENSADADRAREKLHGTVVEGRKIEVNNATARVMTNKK
Strand	RBNS enrichment (R)
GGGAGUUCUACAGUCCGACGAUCACCUUAUUGCUAGUACCUAGAAACACACAAGGCUAUCCAGCCAAAUCUUAAUGUAAAGUAGCUAGAGCCAUGGAAGUCCAGUAUGAAUUAAAGGAAAAAAAGUAUUGAAUUGGAAUUCUCGGGUGCCAA	0.532
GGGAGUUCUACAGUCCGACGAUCAGACUAGCUUGCCUUGGUUUUGAUGUGUGUGGCCUCAGACGUGAUCAUUUCCCAUCCCGCUGUGUCUCUGGGUCUCCCUCCUCCCCAUCUCCACCCCCCAAGAGCCAUUGUGGAAUUCUCGGGUGCCAA	1.99
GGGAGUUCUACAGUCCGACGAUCAUGCACAAAACACUGCUAGAAGGCUCACCUCUCAAAACACGACUCUUUGCAUCACUAUUAAAGAGCAGAAAGUUCUAGAAAUGAUCCCAGCCUCAUCCCCUAUACAGUUAUGGAAUUCUCGGGUGCCAA	1.91
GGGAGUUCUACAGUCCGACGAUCUCCACAGGAGAUAGGCAAGAAGAUUGGAGCAGCUUUCUCACAGGUCUGCAAUUUGGAUUUUCUCCAAGUACAUCAUGACACCUUCGUCCUCCUGAACUGGAGAGGGGAAGUGGAAUUCUCGGGUGCCAA	0.253
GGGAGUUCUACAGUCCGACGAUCCUUGUUUCUAGUGUGUAUAUAUGUCGCCCCCGUGAUGCAUAUAUACACAGGUAUUAAAUAUAUCGCUCUAUAUAAUAUUAUAUAUGUGUGUGGUAUCCAAGGAAUCACUUUGGAAUUCUCGGGUGCCAA	0.448
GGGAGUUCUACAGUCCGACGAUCGACGUUUUUUUUCCCCCCAUCAAAAUUAAAACUCUUUCUUUUGGAUUUAAUGAAGUAUUGCUAACUGAAGCCAGUUUGACUUGUGAGAGAGGUUAGACUGACAGAAGGUGUGGAAUUCUCGGGUGCCAA	0.938
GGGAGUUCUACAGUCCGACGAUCUACCGUGAGCCUUCACAAACAUCAUUCUCGAGGUUUUUUGCUUUUCUCCCUGCUUCAGUCUCCAGAGAACAUAAAUGGCCAAAAAUGUUAAGUCUGGCUAUAUUUGAAGGUGGAAUUCUCGGGUGCCAA	0.366
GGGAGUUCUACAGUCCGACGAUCUGCCCCAAAAUGCAAGAUUUUCCACAAGAUUCCCAGAGACAGGAAAAUCCUCUGGCUGGCUAACUGGAAGCAUGUAGGAGAAUCCAAGCGAGGUCAACAGAGAAGGCAGGUGGAAUUCUCGGGUGCCAA	2.49
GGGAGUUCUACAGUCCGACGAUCCAUUCCAGCCGUGAUGAGCAUUGUGAUCCGAGUGGGUGCCACGUGAGAGAGGGACUGUCACUUUCCCAGACAGAAACGGCCUUUUCAGGAACCAGCAGCCGCUAGGCCAAUGGAAUUCUCGGGUGCCAA	0.683
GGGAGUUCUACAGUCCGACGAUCAGGAAAGAUGUAAUGCAAAGCUGAUUGUUUAAUGUCUUACAGAUUUACACUGUCUUUAAAAGGCCAAAUAAGGCUGGGCGCAGUGGCUCACACCUGUAAUCCCAACAUUUUGGAAUUCUCGGGUGCCAA	0.269
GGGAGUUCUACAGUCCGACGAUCUCCACUGGUCUAGAACACGGCUUUGAGGGCGACAGACUGCGCCUCACUCUGCUGUCAGGUACAGGUCAAGUUCUUGGGGCCCACUUCUGAGUUUAGAAGACCUAUUACAAUGGAAUUCUCGGGUGCCAA	0.25
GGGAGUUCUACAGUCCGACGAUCUGUGGAUAUCUCCAUGGGAAGCUUGAACCAGGCUAGAACAGCUGUCUGCCAAAGAUACAAGAAUAUGCAAAGUCCCUCUUACCCCCCUCCUUCCCUCAAGUCUUAGUUGGUGGAAUUCUCGGGUGCCAA	0.294

Block 4
Target: ABI1, truncated, D143A, DHFR fusion (Arabidopsis thaliana)
Method: DHFR PCA, deep sequencing
Sample: yeast
Setting: methotrexate growth selection, single substitutions
Added: (+)-ABA 0.11 µM
Reference: wild-type fitted maximum
Reading: higher = stronger binding
Starting sequence: PYL1, truncated, DHFR fusion (Arabidopsis thaliana); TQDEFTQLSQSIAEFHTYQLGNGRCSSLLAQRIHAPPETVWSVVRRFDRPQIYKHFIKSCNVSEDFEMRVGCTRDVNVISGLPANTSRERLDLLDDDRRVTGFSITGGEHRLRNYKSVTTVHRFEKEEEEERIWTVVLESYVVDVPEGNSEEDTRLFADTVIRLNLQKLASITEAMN
Substitution	relative binding score
R123D	13.2%
H16E	-1.08%
T120C	-5.07%
L164R	11.2%
I133R	10.1%
E89L	-2.34%
S26L	-0.118%
S117L	-1.9%
L20T	54.9%
V143E	-1.49%
N61L	25.5%
D153W	4.47%
S87M	34%
V62Q	-5.69%
D3K	14.2%
R163L	-0.488%
R45G	-3.72%

Some of these lines once more (block 2):
Strand	fluorescence intensity [a.u.]
CTACAGAAAATAGTCGACGTCAGTCACCTCCAGTTCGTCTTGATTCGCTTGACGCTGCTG	551
GAAAAAAGTCCGGGTGACATTACATACATACGCTAGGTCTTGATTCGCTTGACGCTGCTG	555
CCTAACTACTATAAGTACATCAGATAGCTTCGTACAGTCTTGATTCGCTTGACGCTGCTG	479
GAATAAATGAAAAGAAACGTGCAACGCATTTATTAGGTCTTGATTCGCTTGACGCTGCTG	629
GAACGGCGGCAAAAACGTGACATGCACGTGATGTAGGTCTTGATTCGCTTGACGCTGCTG	22300
CTATCTGCCACTGGTGGTGCTGATAGCGTCGACTTCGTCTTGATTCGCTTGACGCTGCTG	476
GAAATTTCTCATCATCACCTACATATTCTCCTATAGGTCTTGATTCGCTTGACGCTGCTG	586
